Results pooled from the literature.
A part holds a random share of what one study measured. Positions count from the first letter of the parent shown.
Chain of UniProt Q9Y616 (whole entry, looked up): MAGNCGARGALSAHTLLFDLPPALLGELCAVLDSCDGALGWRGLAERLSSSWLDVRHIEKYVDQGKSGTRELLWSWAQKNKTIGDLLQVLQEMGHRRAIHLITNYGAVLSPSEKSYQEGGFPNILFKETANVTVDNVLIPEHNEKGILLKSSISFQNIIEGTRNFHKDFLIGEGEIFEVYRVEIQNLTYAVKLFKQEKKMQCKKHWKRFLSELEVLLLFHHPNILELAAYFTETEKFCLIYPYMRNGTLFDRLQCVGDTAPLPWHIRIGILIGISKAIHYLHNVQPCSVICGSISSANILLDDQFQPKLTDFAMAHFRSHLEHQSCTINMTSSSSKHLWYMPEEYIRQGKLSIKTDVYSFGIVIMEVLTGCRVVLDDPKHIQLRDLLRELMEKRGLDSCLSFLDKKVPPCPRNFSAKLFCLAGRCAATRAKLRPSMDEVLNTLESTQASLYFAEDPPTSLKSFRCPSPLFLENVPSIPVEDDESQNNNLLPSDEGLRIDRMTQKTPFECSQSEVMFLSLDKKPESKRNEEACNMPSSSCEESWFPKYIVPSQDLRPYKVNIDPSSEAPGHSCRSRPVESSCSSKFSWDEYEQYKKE
Chain of UniProt P57078 (whole entry, looked up): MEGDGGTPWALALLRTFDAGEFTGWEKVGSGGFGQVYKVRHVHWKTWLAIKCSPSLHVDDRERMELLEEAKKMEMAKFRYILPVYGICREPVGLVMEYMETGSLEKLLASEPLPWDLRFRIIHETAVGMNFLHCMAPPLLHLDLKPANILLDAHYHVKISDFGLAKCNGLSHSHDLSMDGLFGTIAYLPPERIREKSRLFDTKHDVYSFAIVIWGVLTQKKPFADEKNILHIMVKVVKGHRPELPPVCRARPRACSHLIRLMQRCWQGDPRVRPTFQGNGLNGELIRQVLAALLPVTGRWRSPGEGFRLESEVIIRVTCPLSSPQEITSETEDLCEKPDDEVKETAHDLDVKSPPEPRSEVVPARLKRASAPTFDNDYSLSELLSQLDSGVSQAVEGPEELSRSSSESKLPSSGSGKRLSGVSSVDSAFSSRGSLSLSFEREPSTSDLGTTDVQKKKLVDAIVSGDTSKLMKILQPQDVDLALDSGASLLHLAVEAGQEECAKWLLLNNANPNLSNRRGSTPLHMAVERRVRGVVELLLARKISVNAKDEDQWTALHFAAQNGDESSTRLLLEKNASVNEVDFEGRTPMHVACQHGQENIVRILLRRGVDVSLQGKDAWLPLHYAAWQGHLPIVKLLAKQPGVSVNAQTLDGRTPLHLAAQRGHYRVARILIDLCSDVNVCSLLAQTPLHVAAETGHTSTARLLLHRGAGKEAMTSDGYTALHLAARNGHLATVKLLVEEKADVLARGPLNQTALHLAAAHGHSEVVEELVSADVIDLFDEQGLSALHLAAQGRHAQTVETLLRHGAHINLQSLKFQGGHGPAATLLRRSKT
Chain of UniProt O75116 (whole entry, looked up): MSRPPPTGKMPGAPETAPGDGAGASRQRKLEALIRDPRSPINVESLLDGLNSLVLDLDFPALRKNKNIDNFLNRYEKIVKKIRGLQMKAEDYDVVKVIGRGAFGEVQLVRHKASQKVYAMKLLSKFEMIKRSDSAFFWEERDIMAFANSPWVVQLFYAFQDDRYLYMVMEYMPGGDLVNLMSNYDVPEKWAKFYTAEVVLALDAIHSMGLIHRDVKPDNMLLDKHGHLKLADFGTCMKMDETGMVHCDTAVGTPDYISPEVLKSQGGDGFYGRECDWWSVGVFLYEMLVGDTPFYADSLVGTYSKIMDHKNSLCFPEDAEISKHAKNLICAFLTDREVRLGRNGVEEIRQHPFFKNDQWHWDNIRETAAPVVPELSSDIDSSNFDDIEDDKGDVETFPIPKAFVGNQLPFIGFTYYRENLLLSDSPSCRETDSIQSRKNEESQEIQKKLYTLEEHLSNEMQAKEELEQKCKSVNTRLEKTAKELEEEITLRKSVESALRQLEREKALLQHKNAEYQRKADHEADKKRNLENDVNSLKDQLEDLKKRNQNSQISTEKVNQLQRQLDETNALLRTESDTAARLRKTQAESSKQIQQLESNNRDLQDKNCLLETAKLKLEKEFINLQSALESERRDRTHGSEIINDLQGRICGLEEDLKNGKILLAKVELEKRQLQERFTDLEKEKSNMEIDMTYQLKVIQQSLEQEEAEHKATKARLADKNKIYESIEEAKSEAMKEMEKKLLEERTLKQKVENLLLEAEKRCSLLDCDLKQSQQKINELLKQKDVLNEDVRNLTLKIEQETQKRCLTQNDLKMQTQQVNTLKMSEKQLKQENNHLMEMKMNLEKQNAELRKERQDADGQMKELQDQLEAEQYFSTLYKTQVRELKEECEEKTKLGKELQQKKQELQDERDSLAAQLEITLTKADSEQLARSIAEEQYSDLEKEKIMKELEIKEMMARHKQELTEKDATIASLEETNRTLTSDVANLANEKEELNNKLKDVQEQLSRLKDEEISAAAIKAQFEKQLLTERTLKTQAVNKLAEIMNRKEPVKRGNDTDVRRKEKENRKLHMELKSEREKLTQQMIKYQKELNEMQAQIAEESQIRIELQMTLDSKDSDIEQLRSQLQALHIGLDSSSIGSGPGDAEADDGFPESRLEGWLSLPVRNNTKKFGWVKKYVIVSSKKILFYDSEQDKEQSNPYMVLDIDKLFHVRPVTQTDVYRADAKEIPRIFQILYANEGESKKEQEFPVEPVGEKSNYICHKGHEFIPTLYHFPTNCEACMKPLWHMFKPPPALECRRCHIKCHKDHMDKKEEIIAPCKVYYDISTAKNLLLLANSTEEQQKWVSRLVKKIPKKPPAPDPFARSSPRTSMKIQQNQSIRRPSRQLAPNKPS
Chain of UniProt Q8WXR4 (whole entry, looked up): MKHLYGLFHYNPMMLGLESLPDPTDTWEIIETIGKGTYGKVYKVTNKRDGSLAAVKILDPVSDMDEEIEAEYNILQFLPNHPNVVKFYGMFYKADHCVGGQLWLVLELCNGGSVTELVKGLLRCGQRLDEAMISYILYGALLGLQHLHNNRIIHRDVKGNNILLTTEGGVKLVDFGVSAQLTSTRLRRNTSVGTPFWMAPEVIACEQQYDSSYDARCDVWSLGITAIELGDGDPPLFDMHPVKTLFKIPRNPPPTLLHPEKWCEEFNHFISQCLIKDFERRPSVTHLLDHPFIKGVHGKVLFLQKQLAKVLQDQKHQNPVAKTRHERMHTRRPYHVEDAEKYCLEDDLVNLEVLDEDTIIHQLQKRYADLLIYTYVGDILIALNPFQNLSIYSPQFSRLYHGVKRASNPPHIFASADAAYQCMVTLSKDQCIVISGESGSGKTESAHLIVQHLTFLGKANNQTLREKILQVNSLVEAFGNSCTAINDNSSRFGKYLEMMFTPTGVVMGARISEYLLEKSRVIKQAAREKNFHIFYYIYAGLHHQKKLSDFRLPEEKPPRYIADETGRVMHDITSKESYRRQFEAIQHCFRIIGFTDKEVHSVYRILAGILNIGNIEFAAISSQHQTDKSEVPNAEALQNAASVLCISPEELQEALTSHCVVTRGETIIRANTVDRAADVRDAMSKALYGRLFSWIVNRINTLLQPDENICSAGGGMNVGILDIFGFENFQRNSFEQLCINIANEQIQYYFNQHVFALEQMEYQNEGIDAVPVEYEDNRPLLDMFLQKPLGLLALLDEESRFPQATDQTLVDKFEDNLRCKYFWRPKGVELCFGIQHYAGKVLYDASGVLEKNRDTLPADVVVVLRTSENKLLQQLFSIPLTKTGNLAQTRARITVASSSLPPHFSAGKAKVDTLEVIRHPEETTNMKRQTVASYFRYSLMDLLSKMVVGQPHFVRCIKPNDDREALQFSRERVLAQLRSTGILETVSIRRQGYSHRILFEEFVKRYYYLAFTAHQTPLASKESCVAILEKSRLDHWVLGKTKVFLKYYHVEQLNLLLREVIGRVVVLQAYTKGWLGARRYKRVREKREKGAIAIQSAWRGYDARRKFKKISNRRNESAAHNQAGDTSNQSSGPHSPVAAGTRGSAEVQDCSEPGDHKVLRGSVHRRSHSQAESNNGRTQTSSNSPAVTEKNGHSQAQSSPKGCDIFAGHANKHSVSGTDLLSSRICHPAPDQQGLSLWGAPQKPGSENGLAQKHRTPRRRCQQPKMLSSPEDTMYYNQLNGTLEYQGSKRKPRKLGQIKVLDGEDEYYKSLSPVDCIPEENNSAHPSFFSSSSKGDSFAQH
Chain of UniProt P51817 (whole entry, looked up): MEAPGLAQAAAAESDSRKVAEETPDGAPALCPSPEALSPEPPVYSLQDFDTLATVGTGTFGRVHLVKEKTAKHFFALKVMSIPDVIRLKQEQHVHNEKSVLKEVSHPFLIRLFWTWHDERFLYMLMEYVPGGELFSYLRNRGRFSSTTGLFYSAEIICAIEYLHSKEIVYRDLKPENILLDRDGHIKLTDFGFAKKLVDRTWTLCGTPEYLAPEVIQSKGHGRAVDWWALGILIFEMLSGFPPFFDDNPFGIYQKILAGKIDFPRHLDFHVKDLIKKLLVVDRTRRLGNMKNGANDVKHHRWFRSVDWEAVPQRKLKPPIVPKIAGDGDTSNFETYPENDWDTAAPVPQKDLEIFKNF

Block 1
Structure (SMILES): COc1ccc2cc(OCC3(C(=O)O)CN(C(=O)c4ccc(F)cc4)C3)ccc2c1
Technique: competition with immobilised ligand
Concentration: 1 µM
Quantity: remaining binding
Interleukin-1 receptor-associated kinase 3 (IRAK3, Homo sapiens, UniProt Q9Y616); cell-free assay: 100%
Epidermal growth factor receptor (EGFR, Homo sapiens, UniProt P00533, L858R/T790M); cell-free assay: 100%
Rho-associated protein kinase 2 (ROCK2, Homo sapiens, UniProt O75116); cell-free assay: 100%
Serine/threonine-protein kinase Sgk2 (SGK2, Homo sapiens, UniProt Q9HBY8); cell-free assay: 87%
Discoidin domain-containing receptor 2 (DDR2, Homo sapiens, UniProt Q16832); cell-free assay: 100%
Myosin-IIIb (MYO3B, Homo sapiens, UniProt Q8WXR4); binding: 71%
Serine/threonine-protein kinase RIO3 (RIOK3, Homo sapiens, UniProt O14730); cell-free assay: 97%
cAMP-dependent protein kinase catalytic subunit PRKX (PRKX, Homo sapiens, UniProt P51817); cell-free assay: 90%
Dual specificity mitogen-activated protein kinase kinase 6 (MAP2K6, Homo sapiens, UniProt P52564); cell-free assay: 100%
Cyclin-dependent kinase 14 (CDK14, Homo sapiens, UniProt O94921); cell-free assay: 100%
cGMP-dependent protein kinase 2 (PRKG2, Homo sapiens, UniProt Q13237); cell-free assay: 85%
Receptor-interacting serine/threonine-protein kinase 4 (RIPK4, Homo sapiens, UniProt P57078); cell-free assay: 66%
Serine/threonine-protein kinase VRK2 (VRK2, Homo sapiens, UniProt Q86Y07); cell-free assay: 100%

Block 2
Target: CCNE2, cyclin fold, Cln2 fusion (human)
Technique: yeast growth competition, sequencing
Medium: yeast
Setting: weak parent motif
Relative to: not given
Direction: higher = stronger binding
Quantity: normalised enrichment score
Parent: PKMYT1 docking peptide (human); SFEPRNLLSLFED
F11T: -0.593
R5G: 0.0492
E12Q: 0.622
E12S: -0.142
P4L: 0.173
N6Q: 0.272
E12M: 0.23
R5P: -0.495

Block 3
Target: Serine/threonine-protein kinase PAK 1 (PAK1, Homo sapiens, UniProt Q13153)
Chain of UniProt Q13153 (whole entry, looked up): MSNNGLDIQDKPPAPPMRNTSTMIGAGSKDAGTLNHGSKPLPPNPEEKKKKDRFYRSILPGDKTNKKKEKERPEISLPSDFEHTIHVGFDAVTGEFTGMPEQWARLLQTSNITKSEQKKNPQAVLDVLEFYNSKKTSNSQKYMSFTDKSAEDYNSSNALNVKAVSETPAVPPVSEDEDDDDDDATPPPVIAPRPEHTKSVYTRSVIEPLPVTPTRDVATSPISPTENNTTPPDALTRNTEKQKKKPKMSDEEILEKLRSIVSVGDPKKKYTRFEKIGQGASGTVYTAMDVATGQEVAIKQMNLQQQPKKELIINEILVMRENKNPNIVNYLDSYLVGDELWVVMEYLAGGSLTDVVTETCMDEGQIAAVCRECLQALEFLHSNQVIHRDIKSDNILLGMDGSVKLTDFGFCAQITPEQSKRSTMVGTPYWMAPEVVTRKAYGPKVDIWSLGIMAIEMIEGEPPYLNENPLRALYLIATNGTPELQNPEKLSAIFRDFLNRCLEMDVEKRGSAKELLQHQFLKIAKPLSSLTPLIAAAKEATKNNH
Read-out: enzyme activity
Action: inhibitor
Concentration: 0.5 µM
Relative to: control
Quantity: remaining activity
c1ccc(-c2[nH]ncc2-c2ccnc3ccccc23)nc1: 96.3%
O=C1c2ccccc2-c2n[nH]c3cccc1c23: 94.8%
N#Cc1c(NC(=O)c2cccc3ccccc23)sc2c1CCCC2: 97.4%
CN(C)C[C@H]1CCn2c(c(C3=C(c4cn(C)c5ccccc45)C(=O)NC3=O)c3ccccc32)C1: 99.8%
CCN(CC)CCNC(=O)c1c(C)[nH]c(/C=C2\C(=O)Nc3ccc(Cl)cc32)c1C: 93.4%
CN([C@@H](Cc1ccc(OS(=O)(=O)c2cccc3cnccc23)cc1)C(=O)N1CCN(c2ccccc2)CC1)S(=O)(=O)c1cccc2cnccc12: 95.7%
Cc1cc2ncc(-c3ccccc3)nc2cc1C: 97.8%
Cc1nc2cc3nc(-c4cccs4)cnc3cc2n1C: 86.6%
C[C@@H]1CCN(C(=O)CC#N)C[C@@H]1N(C)c1ncnc2[nH]ccc12: 108%
N#C/C(=C\c1ccc(O)c(O)c1)C(=O)NCc1ccccc1: 97.7%

Single results of other studies
CCC[C@@H]1NC(=O)CSC[C@@H](C(=O)OCC)N(C)C(=O)[C@H](CC(C)C)NC(=O)[C@H](C)N(C)C(=O)[C@@H](CC(C)C)NC(=O)[C@H](C)N(C)C(=O)[C@@H]2CCCN2C(=O)[C@@H](CC(C)C)NC(=O)CN(C)C1=O  logD (hydrocarbon/water): 0.526

For quick reference, copied from above (block 1):
Interleukin-1 receptor-associated kinase 3 (IRAK3, Homo sapiens, UniProt Q9Y616); cell-free assay: 100%
Epidermal growth factor receptor (EGFR, Homo sapiens, UniProt P00533, L858R/T790M); cell-free assay: 100%
Rho-associated protein kinase 2 (ROCK2, Homo sapiens, UniProt O75116); cell-free assay: 100%
Serine/threonine-protein kinase Sgk2 (SGK2, Homo sapiens, UniProt Q9HBY8); cell-free assay: 87%
Discoidin domain-containing receptor 2 (DDR2, Homo sapiens, UniProt Q16832); cell-free assay: 100%
